Experimental data collected from several papers.
Compare with care: the assays were run in different laboratories. ± gives the spread as reported.
UniProt Q96DB2, sequence (whole entry, looked up): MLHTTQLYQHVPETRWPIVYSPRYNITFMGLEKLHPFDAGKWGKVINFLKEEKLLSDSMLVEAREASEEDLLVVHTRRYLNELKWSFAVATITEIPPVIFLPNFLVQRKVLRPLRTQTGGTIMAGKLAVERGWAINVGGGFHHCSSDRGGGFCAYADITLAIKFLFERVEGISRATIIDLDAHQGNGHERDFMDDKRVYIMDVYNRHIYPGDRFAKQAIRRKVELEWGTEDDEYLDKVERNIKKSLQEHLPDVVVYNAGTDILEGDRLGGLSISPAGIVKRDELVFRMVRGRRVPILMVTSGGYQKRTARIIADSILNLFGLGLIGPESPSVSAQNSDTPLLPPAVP
UniProt P28074, sequence (whole entry, looked up): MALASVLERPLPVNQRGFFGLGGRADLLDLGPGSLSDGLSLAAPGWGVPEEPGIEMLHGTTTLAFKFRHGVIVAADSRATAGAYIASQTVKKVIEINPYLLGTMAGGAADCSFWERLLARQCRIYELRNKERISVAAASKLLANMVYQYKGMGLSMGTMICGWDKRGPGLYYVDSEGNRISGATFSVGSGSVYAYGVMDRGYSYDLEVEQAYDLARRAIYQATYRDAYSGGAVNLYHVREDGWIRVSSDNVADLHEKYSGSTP
UniProt P41240, sequence (whole entry, looked up): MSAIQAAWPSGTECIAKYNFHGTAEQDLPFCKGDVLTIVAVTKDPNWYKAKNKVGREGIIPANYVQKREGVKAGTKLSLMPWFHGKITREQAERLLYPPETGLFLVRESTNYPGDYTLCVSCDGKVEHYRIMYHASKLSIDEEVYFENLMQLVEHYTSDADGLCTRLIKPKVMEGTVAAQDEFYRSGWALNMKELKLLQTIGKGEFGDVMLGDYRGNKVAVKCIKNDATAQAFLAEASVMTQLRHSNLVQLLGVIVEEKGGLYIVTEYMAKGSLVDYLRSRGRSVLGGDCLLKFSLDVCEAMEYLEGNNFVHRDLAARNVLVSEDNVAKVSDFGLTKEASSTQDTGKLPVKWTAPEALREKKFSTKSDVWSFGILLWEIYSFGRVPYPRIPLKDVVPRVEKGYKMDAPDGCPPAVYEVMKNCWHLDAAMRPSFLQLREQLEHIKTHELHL
UniProt P16389, sequence (whole entry, looked up): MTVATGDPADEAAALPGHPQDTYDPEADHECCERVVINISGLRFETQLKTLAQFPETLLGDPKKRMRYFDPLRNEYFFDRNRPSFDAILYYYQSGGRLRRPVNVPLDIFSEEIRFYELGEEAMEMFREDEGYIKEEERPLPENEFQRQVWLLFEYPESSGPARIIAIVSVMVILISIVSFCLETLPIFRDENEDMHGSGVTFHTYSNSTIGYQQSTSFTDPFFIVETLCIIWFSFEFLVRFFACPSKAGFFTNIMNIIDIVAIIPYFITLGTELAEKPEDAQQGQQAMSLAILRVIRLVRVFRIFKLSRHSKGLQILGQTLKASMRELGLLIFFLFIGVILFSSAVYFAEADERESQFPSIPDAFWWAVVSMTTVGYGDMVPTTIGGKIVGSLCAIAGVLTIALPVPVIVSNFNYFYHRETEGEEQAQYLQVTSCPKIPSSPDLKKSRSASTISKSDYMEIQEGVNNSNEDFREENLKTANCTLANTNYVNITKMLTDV
UniProt Q09470, sequence (whole entry, looked up): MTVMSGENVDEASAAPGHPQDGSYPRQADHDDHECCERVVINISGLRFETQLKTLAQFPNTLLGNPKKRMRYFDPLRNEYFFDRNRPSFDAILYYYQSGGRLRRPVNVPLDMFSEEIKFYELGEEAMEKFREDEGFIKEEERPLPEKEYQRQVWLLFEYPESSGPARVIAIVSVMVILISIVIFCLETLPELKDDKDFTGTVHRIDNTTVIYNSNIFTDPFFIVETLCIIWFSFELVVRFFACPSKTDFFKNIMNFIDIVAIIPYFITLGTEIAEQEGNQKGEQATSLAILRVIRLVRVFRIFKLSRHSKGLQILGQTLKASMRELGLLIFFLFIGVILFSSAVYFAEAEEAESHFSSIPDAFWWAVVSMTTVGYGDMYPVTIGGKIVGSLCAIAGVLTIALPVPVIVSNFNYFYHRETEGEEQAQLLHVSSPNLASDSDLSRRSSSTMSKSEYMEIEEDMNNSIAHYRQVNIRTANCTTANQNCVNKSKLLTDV
UniProt Q8I5R7, sequence (whole entry, looked up): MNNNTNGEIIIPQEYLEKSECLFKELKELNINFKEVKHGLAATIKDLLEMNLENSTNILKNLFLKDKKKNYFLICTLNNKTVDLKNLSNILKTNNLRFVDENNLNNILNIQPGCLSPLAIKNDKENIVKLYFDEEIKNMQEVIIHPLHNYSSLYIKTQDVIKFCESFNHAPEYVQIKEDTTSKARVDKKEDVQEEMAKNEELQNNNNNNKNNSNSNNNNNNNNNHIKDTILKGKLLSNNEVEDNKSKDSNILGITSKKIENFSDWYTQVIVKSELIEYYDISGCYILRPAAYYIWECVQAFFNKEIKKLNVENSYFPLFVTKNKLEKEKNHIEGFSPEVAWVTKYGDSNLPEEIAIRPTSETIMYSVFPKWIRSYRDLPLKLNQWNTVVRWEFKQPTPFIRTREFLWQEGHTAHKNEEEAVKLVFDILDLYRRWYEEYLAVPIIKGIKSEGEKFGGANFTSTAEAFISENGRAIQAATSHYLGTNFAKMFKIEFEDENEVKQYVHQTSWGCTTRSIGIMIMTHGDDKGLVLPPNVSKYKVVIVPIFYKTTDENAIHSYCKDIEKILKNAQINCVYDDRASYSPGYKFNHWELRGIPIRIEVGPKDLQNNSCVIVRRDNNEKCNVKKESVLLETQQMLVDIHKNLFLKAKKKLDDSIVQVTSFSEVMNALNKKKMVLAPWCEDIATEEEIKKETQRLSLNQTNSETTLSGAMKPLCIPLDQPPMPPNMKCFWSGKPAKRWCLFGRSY
UniProt P30550, sequence (whole entry, looked up): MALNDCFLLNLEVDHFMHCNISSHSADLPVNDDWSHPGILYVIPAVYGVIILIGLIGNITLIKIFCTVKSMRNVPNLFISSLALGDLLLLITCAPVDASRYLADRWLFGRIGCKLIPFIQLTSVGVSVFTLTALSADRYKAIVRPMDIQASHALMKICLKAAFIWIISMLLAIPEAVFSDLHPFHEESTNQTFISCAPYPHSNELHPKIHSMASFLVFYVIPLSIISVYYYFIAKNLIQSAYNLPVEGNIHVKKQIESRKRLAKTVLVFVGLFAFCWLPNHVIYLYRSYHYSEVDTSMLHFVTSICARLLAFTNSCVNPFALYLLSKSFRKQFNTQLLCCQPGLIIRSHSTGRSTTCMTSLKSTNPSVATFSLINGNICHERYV
UniProt P20618, sequence (whole entry, looked up): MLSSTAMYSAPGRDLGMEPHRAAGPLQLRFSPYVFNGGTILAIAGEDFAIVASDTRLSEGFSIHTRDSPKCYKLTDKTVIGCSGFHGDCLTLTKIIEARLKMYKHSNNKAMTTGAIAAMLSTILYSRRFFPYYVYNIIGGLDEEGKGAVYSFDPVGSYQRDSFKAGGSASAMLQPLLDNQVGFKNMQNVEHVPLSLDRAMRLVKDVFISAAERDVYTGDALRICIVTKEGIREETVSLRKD
UniProt Q9NRF8, sequence (whole entry, looked up): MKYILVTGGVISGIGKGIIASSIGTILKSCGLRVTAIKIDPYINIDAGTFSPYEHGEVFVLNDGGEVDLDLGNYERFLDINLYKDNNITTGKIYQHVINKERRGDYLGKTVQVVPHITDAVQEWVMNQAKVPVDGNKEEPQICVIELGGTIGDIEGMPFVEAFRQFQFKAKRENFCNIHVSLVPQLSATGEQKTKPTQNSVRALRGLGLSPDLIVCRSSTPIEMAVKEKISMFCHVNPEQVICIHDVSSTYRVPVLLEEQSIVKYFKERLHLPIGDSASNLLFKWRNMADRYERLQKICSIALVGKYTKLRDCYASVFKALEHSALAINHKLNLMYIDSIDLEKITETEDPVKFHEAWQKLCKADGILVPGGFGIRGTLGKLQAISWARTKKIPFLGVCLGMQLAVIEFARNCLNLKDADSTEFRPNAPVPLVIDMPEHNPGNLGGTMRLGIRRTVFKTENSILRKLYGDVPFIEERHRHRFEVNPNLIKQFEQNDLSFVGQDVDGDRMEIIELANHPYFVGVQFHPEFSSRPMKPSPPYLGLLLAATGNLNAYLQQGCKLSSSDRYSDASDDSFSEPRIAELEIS
UniProt O95838, sequence (whole entry, looked up): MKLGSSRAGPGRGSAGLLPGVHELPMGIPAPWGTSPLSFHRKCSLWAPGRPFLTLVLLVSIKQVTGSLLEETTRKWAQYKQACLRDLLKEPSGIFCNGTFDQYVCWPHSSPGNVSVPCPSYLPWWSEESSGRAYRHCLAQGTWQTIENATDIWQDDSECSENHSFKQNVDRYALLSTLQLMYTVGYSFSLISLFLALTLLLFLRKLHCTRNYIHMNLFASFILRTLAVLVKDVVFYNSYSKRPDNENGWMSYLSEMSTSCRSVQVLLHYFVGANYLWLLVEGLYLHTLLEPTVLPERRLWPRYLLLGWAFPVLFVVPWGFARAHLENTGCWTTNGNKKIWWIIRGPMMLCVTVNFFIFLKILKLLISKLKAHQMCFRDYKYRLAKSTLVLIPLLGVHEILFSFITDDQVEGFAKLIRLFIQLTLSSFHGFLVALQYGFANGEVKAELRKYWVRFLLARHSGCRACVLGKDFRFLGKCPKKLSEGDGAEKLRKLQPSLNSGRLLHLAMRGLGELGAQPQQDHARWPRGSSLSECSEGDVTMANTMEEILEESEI
UniProt Q99685, sequence (whole entry, looked up): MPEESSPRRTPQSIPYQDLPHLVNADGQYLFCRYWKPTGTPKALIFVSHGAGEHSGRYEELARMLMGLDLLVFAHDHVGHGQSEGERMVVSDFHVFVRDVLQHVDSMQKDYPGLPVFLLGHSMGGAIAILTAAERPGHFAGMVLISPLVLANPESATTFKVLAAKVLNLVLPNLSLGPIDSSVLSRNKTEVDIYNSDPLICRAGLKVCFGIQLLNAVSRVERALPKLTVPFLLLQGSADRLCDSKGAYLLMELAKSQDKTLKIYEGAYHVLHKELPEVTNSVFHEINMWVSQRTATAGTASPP

`CCCN(CC(=O)N(CCC)CC(=O)N(CCC)CC(=O)N(CCC)CC(=O)N(CC(=O)N(CCC)CC(=O)N(CCC)CC(=O)N(CCC)CC(=O)N(CCC)CC(=O)N(CC(N)=O)Cc1cn(CCCNC(=O)CCCOc2cccc(-c3nc4ccc(-c5nc6ccc(N7CCN(C)CC7)cc6[nH]5)cc4[nH]3)c2)nn1)Cc1cn(CCCNC(=O)CCCOc2cccc(-c3nc4ccc(-c5nc6ccc(N7CCN(C)CC7)cc6[nH]5)cc4[nH]3)c2)nn1)C(=O)CNCc1cn(CCCNC(=O)CCCOc2cccc(-c3nc4ccc(-c5nc6ccc(N7CCN(C)CC7)cc6[nH]5)cc4[nH]3)c2)nn1` has an IC50 of 410 ± 23 nM (r(CUG)109-MBNL1 complex; binding, inhibitor; with: 1.48 µM yeast tRNA).
For `COc1cc(CNC(=O)C[C@H](C)CCC=C(C)C)ccc1OCc1cn(-c2ccc(C#N)cc2)nn1`, the growth percent was 71% (SW-620; SRB; 10 µM, 48 h).
`O=C(NCCCN1CCC(Cc2ccccc2)CC1)c1ccc2ccccc2n1` has an IC50 of > 10000 nM (SLC6A3 (Homo sapiens, UniProt Q01959); transporter uptake, inhibitor, radiometric).
With `COc1cc(CNC(=O)C[C@H](C)CCC=C(C)C)ccc1O` the growth percent was 90.6% (SR leukaemia cells; SRB; 10 µM, 48 h).
`Cc1cc(N2CC[C@@](C#N)(C3CC3)C2=O)cc(NC(=O)Cc2ccccc2)n1` gave an IC50 of 21.7 nM (Proline--tRNA ligase (Plasmodium falciparum, UniProt Q8I5R7); enzyme activity, inhibitor, absorbance).
`Cc1ccc(CNC(=O)[C@H](CCc2ccccc2)NC(=O)[C@H](CCc2ccccc2)NC(=O)[C@@H](N)Cc2ccncc2)cc1` has an IC50 of 171 nM (Proteasome component C5/PSMB5 (Homo sapiens, UniProt P20618+P28074); β5 activity, inhibitor; with: Suc-LLVY-AMC, PA28α-activated).
With `CC(C)C[C@H](NC(=O)[C@H](CC(C)C)NC(=O)[C@H](Cc1c[nH]cn1)NC(=O)[C@@H](C)NC(=O)[C@@H](NC(=O)[C@H](C)NC(=O)[C@H](Cc1c[nH]c2ccccc12)NC(=O)[C@H](CCC(N)=O)NC(=O)[C@H](N)Cc1ccccc1)C(C)C)C(N)=O` the IC50 was 10 nM (GRPR (Homo sapiens, UniProt P30550); ligand displacement in cells, radioligand).
`CC[C@H](C)[C@H](NC(=O)[C@H](Cc1ccccc1)NC(=O)[C@H](CC(=O)O)NC(=O)[C@H](CCCNC(=N)N)NC(=O)[C@H](C)NC(=O)[C@H](C)NC(=O)[C@H](CC(C)C)NC(=O)[C@H](CC(N)=O)NC(=O)[C@H](CC(=O)O)NC(=O)[C@H](CC(C)C)NC(=O)[C@@H](NC(=O)[C@@H](NC(=O)[C@H](CC(N)=O)NC(=O)[C@H](CCSC)NC(=O)[C@H](CCC(=O)O)NC(=O)[C@H](CC(=O)O)NC(=O)[C@H](CO)NC(=O)[C@H](Cc1ccccc1)NC(=O)[C@H](CO)NC(=O)[C@@H]1CCC[C@H]1NC(=O)[C@H](CC(=O)O)NC(=O)[C@H](C)NC(=O)[C@@H](N)Cc1c[nH]cn1)[C@@H](C)O)[C@@H](C)CC)C(=O)N[C@@H](CC(N)=O)C(=O)N[C@@H](Cc1c[nH]c2ccccc12)C(=O)N[C@@H](CC(C)C)C(=O)N[C@H](C(=O)N[C@@H](CCC(N)=O)C(=O)N[C@H](C(=O)N[C@@H](CCCCN)C(=O)N[C@H](C(=O)N[C@H](C(=O)N[C@@H](CC(=O)O)C(N)=O)[C@@H](C)O)[C@@H](C)CC)[C@@H](C)O)[C@@H](C)CC` has an IC50 of 420 nM (GLP2R (Homo sapiens, UniProt O95838)).
`CC(=O)NCC(=O)N[C@@H](CC(=O)O)C(=O)N[C@@H](Cc1ccc(O)cc1)C(=O)N[C@@H](CO)C(=O)N[C@@H](Cc1cnc[nH]1)C(=O)N[C@H]1CSSC[C@@H](C(=O)N[C@H](C(=O)N[C@@H](Cc2ccc(O)cc2)C(=O)N2CCC[C@H]2C(=O)N[C@@H](CC(=O)O)C(=O)N2CCC[C@H]2C(=O)N[C@@H](CCC(=O)O)C(=O)NCC(=O)NCC(=O)NCC(N)=O)[C@@H](C)O)NC(=O)[C@H](CCCCN)NC(=O)[C@H](Cc2c[nH]c3ccccc23)NC(=O)[C@H](Cc2c[nH]c3ccccc23)NC(=O)[C@@H]2CCCN2C(=O)[C@H](Cc2ccc(O)cc2)NC(=O)[C@H](Cc2ccc(O)cc2)NC(=O)[C@H](CCCNC(=N)N)NC(=O)[C@H](CC(C)C)NC(=O)[C@@H]2CCCN2C(=O)[C@H](CO)NC1=O` gave an IC50 of 158 nM (ACE2 (Homo sapiens, UniProt Q9BYF1); inhibitor).
`CN(C)CCN1CCN(c2ccc(Oc3ccc(F)cc3F)c(-c3cn(C)c(=O)c4[nH]ccc34)c2)S1(=O)=O` has an IC50 of 1.19 nM (Bromodomain-containing protein 4, BD1 (BRD4, Homo sapiens, UniProt O60885); cell-free assay, TR-FRET).
`CNC(=O)C1CCN(c2ccccc2NC(=O)c2ccc(-c3c(C)ccc4[nH]ncc34)c(C)c2)CC1` gave an IC50 of 13 nM (EPHA5 (Homo sapiens, UniProt P54756); target engagement in cells, BRET).
With `Cc1nc(Nc2ncc(C(=O)Nc3c(C)cccc3Cl)s2)cc(N2CCN(CCOC(=O)[C@@H](N)CCC(=O)O)CC2)n1` the IC50 was 20 nM (CSK (Homo sapiens, UniProt P41240); enzyme activity, inhibitor).
`CCOc1cncc(-c2ccc(NC(=O)C3(c4ccnc(NS(=O)(=O)C5CC5)n4)CCOCC3)nc2)n1` gave an IC50 of 12600 nM (CTP synthase 2 (CTPS2, Homo sapiens, UniProt Q9NRF8); enzyme activity, RapidFire mass spectrometry; human; geometric mean).
The IC50 of `Cc1cc(C)c(-c2[nH]nc(C)c2C)cc1C(=O)N1CC(c2ccc(C#N)cc2)C1` is reported as 857 nM (Fatty acid synthase (Fasn, Mus musculus, UniProt P19096); enzyme activity in cells, inhibitor).
`COc1ccc(NC(=O)CN2c3cccc4cccc(c34)S2(=O)=O)cc1OCc1ccncc1` gave an IC50 of 5940 nM (KCNA2/KCNA1 (Homo sapiens, UniProt P16389+Q09470); potassium current, inhibitor, automated patch clamp; CHO-K1, concatemer expressing).
With `Cc1ncc2c(n1)CN(C(=O)Nc1nc(-c3cccs3)ccc1N)C2` the IC50 was > 30000 nM (HDAC11 (Homo sapiens, UniProt Q96DB2); deacetylase activity, inhibitor, recombinant enzyme).
For `[64Cu+2].c1cnc(CNCc2ccc(CN3CCCN4CCNCCCN(CC4)CC3)cc2)nc1`, the tissue uptake was 1.88 ± 0.32 %ID/g (CXCR4; NOD/SCID mouse, U87 and U87-stb-CXCR4 xenografts, pancreas; iv, 120 min, ex vivo).
With `O=C(OC(C(F)(F)F)C(F)(F)F)N1CCC(CCn2ccc3cccnc32)CC1` the IC50 was 350 nM (MGLL (Homo sapiens, UniProt Q99685); enzyme activity, inhibitor).

Some of these lines once more:
With `CC(C)C[C@H](NC(=O)[C@H](CC(C)C)NC(=O)[C@H](Cc1c[nH]cn1)NC(=O)[C@@H](C)NC(=O)[C@@H](NC(=O)[C@H](C)NC(=O)[C@H](Cc1c[nH]c2ccccc12)NC(=O)[C@H](CCC(N)=O)NC(=O)[C@H](N)Cc1ccccc1)C(C)C)C(N)=O` the IC50 was 10 nM (GRPR (Homo sapiens, UniProt P30550); ligand displacement in cells, radioligand).
`CNC(=O)C1CCN(c2ccccc2NC(=O)c2ccc(-c3c(C)ccc4[nH]ncc34)c(C)c2)CC1` gave an IC50 of 13 nM (EPHA5 (Homo sapiens, UniProt P54756); target engagement in cells, BRET).
